Assay results collected from several papers.
Each line is one published result; not all experiments were run side by side. “And” joins repeats or separate records; there may be more than shown. ± gives the spread as reported.
ACHE: Acetylcholinesterase (ACHE, Homo sapiens, UniProt P22303)
Sequence of UniProt Q01959 (whole entry, unmodified, looked up): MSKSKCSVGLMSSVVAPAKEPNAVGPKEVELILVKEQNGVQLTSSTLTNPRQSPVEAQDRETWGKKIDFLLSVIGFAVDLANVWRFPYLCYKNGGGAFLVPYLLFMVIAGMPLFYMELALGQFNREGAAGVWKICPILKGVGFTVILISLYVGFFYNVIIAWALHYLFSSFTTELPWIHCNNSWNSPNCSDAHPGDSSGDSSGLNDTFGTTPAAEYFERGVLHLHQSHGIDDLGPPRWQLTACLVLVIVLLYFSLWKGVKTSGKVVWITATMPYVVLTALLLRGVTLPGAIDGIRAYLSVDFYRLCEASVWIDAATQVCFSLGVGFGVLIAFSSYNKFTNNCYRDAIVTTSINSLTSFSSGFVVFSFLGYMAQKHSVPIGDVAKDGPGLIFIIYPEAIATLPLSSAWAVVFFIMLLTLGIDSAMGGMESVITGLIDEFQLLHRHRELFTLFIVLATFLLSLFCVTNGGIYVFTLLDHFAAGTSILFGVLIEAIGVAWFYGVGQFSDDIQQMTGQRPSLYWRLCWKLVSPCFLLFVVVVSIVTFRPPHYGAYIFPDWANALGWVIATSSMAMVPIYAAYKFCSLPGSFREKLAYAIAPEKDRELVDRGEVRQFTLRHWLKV
Sequence of UniProt P22303 (whole entry, looked up): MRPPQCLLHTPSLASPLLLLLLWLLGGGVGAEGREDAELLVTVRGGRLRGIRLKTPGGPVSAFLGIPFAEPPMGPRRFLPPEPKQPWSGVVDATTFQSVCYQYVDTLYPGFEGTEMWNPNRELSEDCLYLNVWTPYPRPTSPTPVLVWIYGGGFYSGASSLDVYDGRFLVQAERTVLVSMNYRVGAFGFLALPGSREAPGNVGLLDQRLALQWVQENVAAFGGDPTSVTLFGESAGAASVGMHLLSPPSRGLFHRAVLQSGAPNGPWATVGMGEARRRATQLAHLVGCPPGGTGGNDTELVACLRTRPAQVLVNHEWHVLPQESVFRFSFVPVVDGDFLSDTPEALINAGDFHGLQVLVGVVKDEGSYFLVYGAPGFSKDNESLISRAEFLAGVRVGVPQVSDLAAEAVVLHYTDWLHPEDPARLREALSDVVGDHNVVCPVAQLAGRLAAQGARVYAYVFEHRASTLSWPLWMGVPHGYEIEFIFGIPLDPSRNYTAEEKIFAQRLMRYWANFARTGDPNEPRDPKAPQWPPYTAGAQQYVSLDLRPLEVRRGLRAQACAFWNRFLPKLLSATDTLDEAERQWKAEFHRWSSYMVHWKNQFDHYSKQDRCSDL
Sequence of UniProt P36544 (whole entry, looked up): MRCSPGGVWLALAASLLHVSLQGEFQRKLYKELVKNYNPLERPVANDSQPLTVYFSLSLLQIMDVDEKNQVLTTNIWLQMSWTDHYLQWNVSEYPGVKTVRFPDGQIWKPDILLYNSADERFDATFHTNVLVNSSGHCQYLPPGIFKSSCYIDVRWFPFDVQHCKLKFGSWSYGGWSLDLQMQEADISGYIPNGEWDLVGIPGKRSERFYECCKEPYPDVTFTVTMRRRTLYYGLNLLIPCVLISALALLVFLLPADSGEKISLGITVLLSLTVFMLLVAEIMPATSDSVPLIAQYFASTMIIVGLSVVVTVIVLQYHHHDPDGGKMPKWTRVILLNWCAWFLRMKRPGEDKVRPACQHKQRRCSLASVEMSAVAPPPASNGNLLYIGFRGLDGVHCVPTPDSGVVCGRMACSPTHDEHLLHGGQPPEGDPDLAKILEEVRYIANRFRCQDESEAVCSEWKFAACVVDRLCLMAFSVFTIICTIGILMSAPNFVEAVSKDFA
Sequence of UniProt Q96P65 (whole entry, looked up): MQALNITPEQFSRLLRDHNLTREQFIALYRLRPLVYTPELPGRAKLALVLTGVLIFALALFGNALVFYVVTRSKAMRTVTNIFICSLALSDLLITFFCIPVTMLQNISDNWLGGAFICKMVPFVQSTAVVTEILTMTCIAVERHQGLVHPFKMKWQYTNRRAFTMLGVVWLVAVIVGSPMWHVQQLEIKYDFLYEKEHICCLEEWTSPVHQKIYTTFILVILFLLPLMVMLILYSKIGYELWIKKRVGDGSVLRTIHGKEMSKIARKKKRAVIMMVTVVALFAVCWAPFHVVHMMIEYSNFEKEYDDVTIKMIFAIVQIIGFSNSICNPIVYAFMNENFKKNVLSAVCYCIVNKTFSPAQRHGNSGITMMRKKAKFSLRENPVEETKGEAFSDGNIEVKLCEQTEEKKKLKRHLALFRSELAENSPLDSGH
Sequence of UniProt Q92993 (whole entry, looked up): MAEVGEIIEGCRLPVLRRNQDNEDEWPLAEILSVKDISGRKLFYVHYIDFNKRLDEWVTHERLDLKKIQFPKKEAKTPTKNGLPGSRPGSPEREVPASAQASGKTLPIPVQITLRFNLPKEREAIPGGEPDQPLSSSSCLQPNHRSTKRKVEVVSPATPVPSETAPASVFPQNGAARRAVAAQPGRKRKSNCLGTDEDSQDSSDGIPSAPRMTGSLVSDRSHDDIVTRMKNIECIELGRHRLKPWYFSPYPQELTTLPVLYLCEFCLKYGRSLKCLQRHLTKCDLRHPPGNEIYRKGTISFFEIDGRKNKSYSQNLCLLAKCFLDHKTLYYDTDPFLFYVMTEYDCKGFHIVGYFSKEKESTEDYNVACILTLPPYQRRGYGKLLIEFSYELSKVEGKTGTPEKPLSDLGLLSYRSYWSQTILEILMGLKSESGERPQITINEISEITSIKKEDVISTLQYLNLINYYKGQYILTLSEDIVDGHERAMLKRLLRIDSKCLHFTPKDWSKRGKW
Sequence of UniProt P31644 (whole entry, looked up): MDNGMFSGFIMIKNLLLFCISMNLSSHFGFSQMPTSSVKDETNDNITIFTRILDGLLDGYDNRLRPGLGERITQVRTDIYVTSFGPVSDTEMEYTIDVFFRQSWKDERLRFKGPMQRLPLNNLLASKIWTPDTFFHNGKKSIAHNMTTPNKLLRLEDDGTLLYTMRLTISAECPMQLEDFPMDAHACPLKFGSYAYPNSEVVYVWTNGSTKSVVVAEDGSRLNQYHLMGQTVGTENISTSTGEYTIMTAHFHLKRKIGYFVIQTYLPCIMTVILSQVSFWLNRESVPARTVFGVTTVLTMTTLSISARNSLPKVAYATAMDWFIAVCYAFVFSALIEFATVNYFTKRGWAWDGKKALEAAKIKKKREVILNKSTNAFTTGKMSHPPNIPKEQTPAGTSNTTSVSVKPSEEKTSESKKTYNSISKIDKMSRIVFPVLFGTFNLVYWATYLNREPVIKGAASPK
Sequence of UniProt P28223 (whole entry, looked up): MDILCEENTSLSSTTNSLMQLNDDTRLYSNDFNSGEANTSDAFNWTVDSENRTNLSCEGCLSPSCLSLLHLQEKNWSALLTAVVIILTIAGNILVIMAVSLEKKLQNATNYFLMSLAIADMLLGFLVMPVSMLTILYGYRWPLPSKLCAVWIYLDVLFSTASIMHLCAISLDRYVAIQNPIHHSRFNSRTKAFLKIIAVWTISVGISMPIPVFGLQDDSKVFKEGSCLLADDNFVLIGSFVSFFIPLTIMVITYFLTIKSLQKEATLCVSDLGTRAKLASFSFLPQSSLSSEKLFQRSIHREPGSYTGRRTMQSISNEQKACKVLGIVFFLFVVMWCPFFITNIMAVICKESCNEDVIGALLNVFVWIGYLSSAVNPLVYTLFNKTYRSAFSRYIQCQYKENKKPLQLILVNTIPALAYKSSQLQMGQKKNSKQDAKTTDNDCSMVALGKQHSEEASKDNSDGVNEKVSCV
Sequence of UniProt P55060 (whole entry, looked up): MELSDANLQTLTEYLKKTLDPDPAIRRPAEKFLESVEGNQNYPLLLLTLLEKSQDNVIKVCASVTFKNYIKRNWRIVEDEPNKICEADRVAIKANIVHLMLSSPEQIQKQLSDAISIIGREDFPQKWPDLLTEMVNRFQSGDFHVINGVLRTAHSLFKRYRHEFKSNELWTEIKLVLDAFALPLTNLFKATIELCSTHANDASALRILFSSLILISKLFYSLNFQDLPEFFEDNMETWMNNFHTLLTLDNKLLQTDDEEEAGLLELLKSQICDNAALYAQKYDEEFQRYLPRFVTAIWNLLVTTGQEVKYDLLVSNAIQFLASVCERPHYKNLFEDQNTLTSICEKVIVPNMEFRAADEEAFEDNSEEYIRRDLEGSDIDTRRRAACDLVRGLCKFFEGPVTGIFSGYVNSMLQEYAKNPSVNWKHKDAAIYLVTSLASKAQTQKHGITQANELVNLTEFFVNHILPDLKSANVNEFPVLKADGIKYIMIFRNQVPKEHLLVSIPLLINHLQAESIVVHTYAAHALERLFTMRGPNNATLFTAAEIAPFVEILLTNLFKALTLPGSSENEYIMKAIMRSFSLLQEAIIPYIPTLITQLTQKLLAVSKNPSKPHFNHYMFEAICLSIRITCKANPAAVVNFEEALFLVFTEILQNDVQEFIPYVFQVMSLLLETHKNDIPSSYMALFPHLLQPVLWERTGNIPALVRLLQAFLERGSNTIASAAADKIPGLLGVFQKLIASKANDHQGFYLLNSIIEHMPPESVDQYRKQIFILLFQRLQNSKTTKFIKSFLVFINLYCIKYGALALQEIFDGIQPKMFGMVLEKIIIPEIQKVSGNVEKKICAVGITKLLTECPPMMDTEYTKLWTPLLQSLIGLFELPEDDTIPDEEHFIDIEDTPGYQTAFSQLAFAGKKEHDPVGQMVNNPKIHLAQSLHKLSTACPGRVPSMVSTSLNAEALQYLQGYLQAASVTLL
Sequence of UniProt Q9GZN0 (whole entry, looked up): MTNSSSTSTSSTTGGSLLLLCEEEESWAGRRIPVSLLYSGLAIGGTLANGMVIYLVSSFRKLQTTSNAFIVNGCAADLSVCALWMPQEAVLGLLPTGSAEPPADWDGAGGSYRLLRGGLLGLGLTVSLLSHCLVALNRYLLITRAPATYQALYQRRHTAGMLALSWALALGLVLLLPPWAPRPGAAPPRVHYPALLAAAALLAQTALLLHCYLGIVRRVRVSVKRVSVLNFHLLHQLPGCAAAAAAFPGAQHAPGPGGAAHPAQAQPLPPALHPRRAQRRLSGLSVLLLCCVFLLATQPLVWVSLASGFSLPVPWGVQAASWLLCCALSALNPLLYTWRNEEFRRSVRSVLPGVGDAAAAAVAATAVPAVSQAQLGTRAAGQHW

SMILES | target or system | test | test system | conditions | scale | measurement | result
COc1cc(Nc2ncc(F)c(Nc3ccc4c(n3)NC(=O)C(C)(C)O4)n2)cc(OC)c1OC | QRFPR (Homo sapiens, UniProt Q96P65) |  |  |  |  | IC50 | > 10 µM
O=C(c1ccc(Cl)cc1)N1CCN2C(=O)N(OC(=O)N3CCOc4ccccc43)C(=O)C2C1 (stereo not drawn) | Phospholipase A1 member A (PLA1A, Homo sapiens, UniProt Q53H76) | MS-based ABPP | SW-620 conditioned medium | 10 µM, 1 h, 37 °C | reference: compound over DMSO, lower = more inhibition | mean protein ratio | 1.03
CN1CCN(c2cc(-c3ccncc3)c(-c3ccc4ccccc4c3)nn2)CC1 | CCR6 (Homo sapiens, UniProt P51684) | antagonist, FLIPR |  | 10 µM |  | inhibition | -9.4%
COc1ccc(N2CCN(C(CNC(=O)Oc3ccccc3)c3cccnc3)CC2)cc1 (stereo not drawn) | Trypanosoma cruzi | reporter translation, Renilla luciferase mRNA translation | cell-free extract | 40 µM | reference: DMSO | inhibition | -3.3%
Oc1ccc2c3c1O[C@H]1[C@@H](O)CC[C@@]4(O)[C@@H](C2)N(CC2CCC2)CC[C@]314 | G protein-coupled receptor 88 (Homo sapiens, UniProt Q9GZN0) | β-arrestin recruitment, TANGO luminescence, measured: GPR88 |  | concentration not given | reference: basal luminescence | log2 fold change | -0.118
O=S(=O)([O-])C(F)(F)C(F)(F)C(F)(F)C(F)(F)C(F)(F)C(F)(F)C(F)(F)C(F)(F)F.[K+] |  | RT-qPCR, measured: Pparg | mouse, ethanol-fed, liver | dose not given | reference: efavirenz | mRNA level | increased
COc1cc(CCC[P+](c2ccccc2)(c2ccccc2)c2ccccc2)c(OC)c2c1OCO2.[I-] | MDA-MB-435 | SRB |  |  |  | TGI | -5.23 log M
O=C(NCCN1CCC2(CC1)C(=O)NCN2c1cccc(F)c1)c1ccc(F)c(F)c1 | ACHE | enzyme activity, inhibitor |  |  |  | IC50 | inactive
COc1ccc2c(c1OC)C(=O)c1c(cc(C)c(O)c1OC)C2=O | HepaRG co-cultured with HK-2 | MTT |  | 66.67 µM, 24 h | reference: untreated control | cell viability | 94.9 ± 11%
Brc1ccc2c(c1)C(c1ccccn1)=NCc1c(-c3cnco3)ncn1-2 | Gamma-aminobutyric acid receptor subunit gamma-2 / Gamma-aminobutyric acid receptor subunit alpha-5, with β3 subunit (Homo sapiens, UniProt P18507+P31644) | [3H]flunitrazepam binding |  |  | reference: α5β3γ2 over α1β3γ2 GABA-A | selectivity ratio | 1.42
CNC1(c2ccccc2Cl)CCCCC1=O (racemic) | CHRNA7 (Homo sapiens, UniProt P36544) | radioligand binding, antagonist, radioligand displacement |  | 30 µM |  | inhibition | -1%
CC[C@H](C)[C@@H]1NC(=O)[C@@H]2CCCN2C(=O)[C@H](CC(C)C)NC(=O)[C@H](CC(C)C)NC(=O)CNC(=O)[C@@H](NC(=O)[C@@H](NC(=O)[C@H](CC(=O)O)NC(=O)CNC(=O)[C@@H](NC(=O)[C@H](C)NC(=O)CNC(=O)[C@H](CCCCN)NC(=O)[C@H](CC(C)C)NC(=O)[C@H](CC(C)C)NC(=O)[C@H](CCCCN)NC(=O)CNC(=O)[C@@H](NC(=O)[C@@H](N)CC(C)C)C(C)C)C(C)C)C(C)C)CSSC[C@@H](C(=O)O)NC1=O |  | RNA-seq, measured: Casp7 | mouse, traumatic brain injury model, frontal cortex and hippocampus | dose not given | reference: TBI alone | log2 fold change | 0.4
COc1cc(CCNC(C)c2ccccc2O)c(OC)cc1C#N.Cl (stereo not drawn) | HTR2A (Homo sapiens, UniProt P28223) | binding, radioligand displacement |  | added: [3H]-ketanserin, [3H]-mesulergine (5-HT2C) | reference: 5-HT2A over 5-HT2C | selectivity ratio | 149 fold
CC(C)(C)C1CCN(C(=O)n2ncc(C(O)(c3ccccc3)c3ccccc3)n2)CC1 | ACHE | enzyme activity, inhibitor |  |  |  | IC50 | inactive
C[C@H]1CN(c2n[nH]c3nc(N[C@H]4CC[C@H](NS(=O)(=O)CCC(F)(F)F)CC4)ncc23)CCO1 | Exportin-2 (Homo sapiens, UniProt P55060) | competitor, Kinobeads competition | human cell extract | 0.032 µM | reference: vehicle | relative abundance | 0.97
CCCN(CCC)CCc1c[nH]c2ccccc12.Cl | ACHE | enzyme activity, inhibitor |  |  |  | IC50 | inactive
CC[C@H](C)[C@H](NC(=O)CNC(=O)[C@@H](N)CCCCN)C(=O)N[C@@H](CC(C)C)C(=O)N[C@@H](CCCCN)C(=O)N[C@@H](CCCNC(=N)N)C(=O)N[C@@H](CCC(=O)O)C(=O)N[C@@H](CCCCN)C(=O)N[C@@H](CCCNC(=N)N)C(=O)N[C@@H](CC(C)C)C(=O)N[C@@H](CCCNC(=N)N)C(=O)N[C@@H](CCCNC(=N)N)C(=O)N[C@@H](CCCCN)C(=O)N[C@@H](CC(N)=O)C(=O)N[C@H](C(=O)N[C@@H](Cc1c[nH]cn1)C(=O)N[C@@H](Cc1c[nH]c2ccccc12)C(=O)N1CCC[C@H]1C(=O)N[C@@H](CCC(=O)O)C(=O)N[C@@H](CCC(=O)O)C(=O)NCC(=O)N[C@@H](CCCCN)C(=O)N[C@@H](CC(C)C)C(=O)N[C@@H](CCCNC(=N)N)C(=O)N[C@@H](CCC(=O)O)C(=O)N[C@@H](Cc1ccc(O)cc1)C(=O)N[C@@H](Cc1ccccc1)C(=O)N[C@@H](Cc1ccc(O)cc1)C(=O)N[C@@H](Cc1ccccc1)C(=O)N[C@@H](CCC(=O)O)C(=O)N[C@@H](CC(C)C)C(=O)N[C@@H](CC(=O)O)C(=O)N[C@@H](CCC(=O)O)C(=O)N[C@@H](C)C(=O)N[C@@H](CCC(=O)O)C(=O)N[C@@H](CCCNC(=N)N)C(=O)N[C@H](C(=O)N[C@@H](CC(N)=O)C(=O)N[C@H](C(=O)O)C(C)C)C(C)C)C(C)C | HeLa and HEK-293T cells | phosphatase bead binding, competitive inhibitor, PIB pulldown iBAQ LC-MS/MS, measured: FECH |  | concentration not given | reference: untreated control | log2 fold change | 0.45
COc1ccc(N2C(=O)N(c3c(C)cccc3Cl)Cc3cnc(Nc4ccc(C5CCN(C)CC5)cc4OC)nc32)nc1 | MINK1 (Homo sapiens, UniProt Q8N4C8) | kinase activity, inhibitor |  | 0.5 µM, kinase MINK |  | inhibition | 5.36%
CC[C@H](C)[C@H](NC(=O)[C@H](Cc1ccccc1)NC(=O)[C@H](CCC(=O)O)NC(=O)[C@H](CCCNC(=N)N)NC(=O)[C@H](C)NC(=O)[C@H](C)NC(=O)[C@H](CCC(N)=O)NC(=O)[C@H](CCC(=O)O)NC(=O)[C@H](CCC(=O)O)NC(=O)[C@H](CC(C)C)NC(=O)[C@H](Cc1ccc(O)cc1)NC(=O)[C@H](CO)NC(=O)[C@H](CO)NC(=O)[C@@H](NC(=O)[C@H](CC(=O)O)NC(=O)[C@H](CO)NC(=O)[C@@H](NC(=O)[C@H](Cc1ccccc1)NC(=O)[C@@H](NC(=O)CNC(=O)[C@H](CCC(=O)O)NC(=O)[C@H](C)NC(=O)CCc1c[nH]cn1)[C@@H](C)O)[C@@H](C)O)C(C)C)C(=O)N[C@@H](C)C(=O)N[C@@H](Cc1c[nH]c2ccccc12)C(=O)N[C@@H](CC(C)C)C(=O)N[C@H](C(=O)N[C@@H](CCCNC(=N)N)C(=O)NCC(=O)N[C@@H](CCCNC(=N)N)C(=O)N[C@@H](CCCCNC(=O)COCCOCCNC(=O)COCCOCCNC(=O)CC[C@H](NC(=O)CCCCCCCCCCCCCCCCC(=O)O)C(=O)O)C(=O)NCC(=O)NCC(=O)N[C@@H](CO)C(=O)N[C@@H](CCCCNc1c(NCCCCCN(O)C(=O)CCC(=O)NCCCCCN(O)C(=O)CCC(=O)NCCCCCN(O)C(C)=O)c(=O)c1=O)C(=O)O)C(C)C [zirconium-89 labelled] |  | ex vivo gamma counting | rat, skin at injection site | subcutaneous, 3 nmol/kg, 4 h |  | tissue uptake | 5.14 %ID/g
COc1c(CCC[P+](c2ccccc2)(c2ccccc2)c2ccccc2)cc2c(c1OC)OCO2.[I-] | Hs-578T | SRB |  |  |  | TGI | -4.87 log M
CCOc1ccccc1C(=O)Nc1ccc(Cl)c(C(F)(F)F)c1 | KAT5 (Homo sapiens, UniProt Q92993) | SPR |  | 5.56 µM | higher = more binding | SPR binding response | 0.201 RU
c1ccc2cc([C@]34CNC[C@H]3C4)ccc2c1 | SLC6A3 (Homo sapiens, UniProt Q01959, V152A) | inhibitor, [3H]dopamine uptake |  | 100 pM, V152A mutant | reference: no inhibitor | dopamine uptake | 96.6% and 82.3% and 85%
CC(=O)N1CCC(C(=O)N2CCN3C(=O)c4cc(-c5ccccc5)ccc4NC(=O)C3C2)CC1 (stereo not drawn) | Salmonella typhimurium |  | TA1537 | 5000 µg/plate |  | revertants per plate | 19.5
COc1ccc(-n2nc(C(C)=O)s/c2=N\N=C(/C)c2ccc(NC(C)=O)cc2)cc1 | HepG2 |  |  | 5 µM |  | viability | 6.18%
Br.CN1CCC[C@@H]1Cc1c[nH]c2ccc(CCS(=O)(=O)c3ccccc3)cc12 | ACHE | enzyme activity, inhibitor |  |  |  | IC50 | inactive
CCCCC1(CCCC)CN(c2ccccc2)c2cc(SC)c(OCC(=O)N[C@@H](C(=O)NCC(=O)O)c3ccccc3)cc2S(=O)(=O)C1 |  | measured: LDL cholesterol | human, serum | 20 mg once daily, day 9 |  | serum LDL-C | 68.8 mg/dL
CCOC(=O)C(=O)c1csc(NC=O)n1 | ACHE | enzyme activity, inhibitor |  |  |  | IC50 | inactive
[2H]c1c([2H])c([C@]2([2H])CCCN2C(=O)C(C)(C)Oc2ccc3cn[nH]c3c2)c([2H])c([2H])c1C([2H])([2H])[2H] | TBK1 (Homo sapiens, UniProt Q9UHD2) | KINOMEscan |  | 1 µM | reference: DMSO control | remaining binding | 84%
C[N+](C)(CCOc1ccccc1)Cc1cccs1.[I-] | ACHE | enzyme activity, inhibitor |  |  |  | IC50 | inactive
C[C@@H](O)[C@@H](CO)NC(=O)[C@@H](CCCNC(=N)N)NC(=O)[C@@H]1CCCN1C(=O)[C@@H]1CSSC[C@H](NC(=O)[C@H](Cc2ccccc2)NC(=O)CN2CCN(CC(=O)O)CCN(CC(=O)O)CCN(CC(=O)O)CC2)C(=O)N[C@@H](Cc2ccc(O)cc2)C(=O)N[C@@H](Cc2ccccc2)C(=O)N[C@@H](CCC(N)=O)C(=O)N[C@@H](CC(N)=O)C(=O)N1 [gallium-68 labelled] |  |  | healthy Wistar rat, bone | intravenous, 8 MBq, 120 min, individual animals |  | tissue uptake | 0.02 %ID/g

Repeated from above:
SMILES | target or system | test | test system | conditions | scale | measurement | result
CC[C@H](C)[C@H](NC(=O)[C@H](Cc1ccccc1)NC(=O)[C@H](CCC(=O)O)NC(=O)[C@H](CCCNC(=N)N)NC(=O)[C@H](C)NC(=O)[C@H](C)NC(=O)[C@H](CCC(N)=O)NC(=O)[C@H](CCC(=O)O)NC(=O)[C@H](CCC(=O)O)NC(=O)[C@H](CC(C)C)NC(=O)[C@H](Cc1ccc(O)cc1)NC(=O)[C@H](CO)NC(=O)[C@H](CO)NC(=O)[C@@H](NC(=O)[C@H](CC(=O)O)NC(=O)[C@H](CO)NC(=O)[C@@H](NC(=O)[C@H](Cc1ccccc1)NC(=O)[C@@H](NC(=O)CNC(=O)[C@H](CCC(=O)O)NC(=O)[C@H](C)NC(=O)CCc1c[nH]cn1)[C@@H](C)O)[C@@H](C)O)C(C)C)C(=O)N[C@@H](C)C(=O)N[C@@H](Cc1c[nH]c2ccccc12)C(=O)N[C@@H](CC(C)C)C(=O)N[C@H](C(=O)N[C@@H](CCCNC(=N)N)C(=O)NCC(=O)N[C@@H](CCCNC(=N)N)C(=O)N[C@@H](CCCCNC(=O)COCCOCCNC(=O)COCCOCCNC(=O)CC[C@H](NC(=O)CCCCCCCCCCCCCCCCC(=O)O)C(=O)O)C(=O)NCC(=O)NCC(=O)N[C@@H](CO)C(=O)N[C@@H](CCCCNc1c(NCCCCCN(O)C(=O)CCC(=O)NCCCCCN(O)C(=O)CCC(=O)NCCCCCN(O)C(C)=O)c(=O)c1=O)C(=O)O)C(C)C [zirconium-89 labelled] |  | ex vivo gamma counting | rat, skin at injection site | subcutaneous, 3 nmol/kg, 4 h |  | tissue uptake | 5.14 %ID/g
O=C(c1ccc(Cl)cc1)N1CCN2C(=O)N(OC(=O)N3CCOc4ccccc43)C(=O)C2C1 (stereo not drawn) | Phospholipase A1 member A (PLA1A, Homo sapiens, UniProt Q53H76) | MS-based ABPP | SW-620 conditioned medium | 10 µM, 1 h, 37 °C | reference: compound over DMSO, lower = more inhibition | mean protein ratio | 1.03
CC(C)(C)C1CCN(C(=O)n2ncc(C(O)(c3ccccc3)c3ccccc3)n2)CC1 | ACHE | enzyme activity, inhibitor |  |  |  | IC50 | inactive
COc1ccc2c(c1OC)C(=O)c1c(cc(C)c(O)c1OC)C2=O | HepaRG co-cultured with HK-2 | MTT |  | 66.67 µM, 24 h | reference: untreated control | cell viability | 94.9 ± 11%
